Results of several laboratories.
Lines come from different studies, so protocols differ. Values joined by “and” are separate records of one study, mostly repeats; a detail may differ. ± marks the error that the study gave.

Under “apoptotic cells (early plus late)”, O=C(C[C@@H](C(F)F)n1ccc(F)n1)N1CCC(O)(Cn2cnc3c(cnn3-c3ccc(F)cc3)c2=O)CC1 is recorded as 9.97% and 12.7% and 11.8% (CHP-212 resistant cells (pooled); annexin V-PI flow cytometry; 1 µM, 48 h).
CCCCc1nc(Cl)c(CO)n1Cc1ccc(-c2ccccc2-c2nn[nH]n2)cc1: “log2 fold change” -1.58 (human PBMC; RNA-seq, refers to: CCR2 mRNA; 10 µg/mL, 24 h; relative to: untreated control).
For CC[S+]([O-])c1nc(-c2ccccc2)cc(C(F)(F)F)n1 (stereo not shown), “cells with nuclear RelA” read 8.12% and 10.7% (HeLa Kyoto; RelA nuclear import, high content imaging; 50 µM, 3 h, together with: 1 µM PMA, 60 min).
The IC50 of Cc1cc(=O)c(-c2ccc(Oc3ccc(C(F)(F)F)cc3)cc2)c(C)n1O is reported as 0.213 ± 0.034 µM (Plasmodium yoelii; 17XL; 384-well).
With O=C(/C=C/C=C/C=C/C1CCCCC1)NC1=C[C@@](O)(/C=C/C=C/C=C/C(=O)NC2=C(O)CCC2=O)[C@@H]2O[C@@H]2C1=O the GI50 was 16.7 µM (snuc2a; cell growth, inhibitor, CellTiter-Glo luminescence; 78 h; relative to: day 0 cell count).
C#Cc1cccc(Nc2ncnc3cc(OC)c(OCCCCCCC(=O)NO)cc23)c1 has a viability of 6.95% (HBL-1; 1 µM, 120 h).
Cn1cc(-c2ccc(-c3cncc(Cl)c3N3CCC4(CCNC4=O)CC3)cc2)cn1 — result for “log2 fold change”: -1.62 (COLO 205; gene expression, microarray, refers to: HIST1H4C mRNA; concentration not given, 2 h; relative to: untreated cells).
The viability of CCCCc1nc2cc(/C=C/C(=O)NO)ccc2n1CCN(CC)CC is reported as 0.465% (HBL-1; 1 µM, 120 h).
The IC50 of Cc1cc(C)c2cc(CNCCCNc3nc4ccccc4[nH]3)[nH]c2c1 is reported as greater than 20 µM (Plasmodium yoelii; 17XL; 384-well).
For CCn1cc(-c2cc(Cn3ccoc3=N)cc3c2CCN([C@@H](C)c2cc(OC)ccn2)C3=O)c(C(F)(F)F)n1, the EC50 was 6.68 µM (Huh-7; cell growth, inhibitor; 120 h).
For Cn1cc(Nc2nccc(-c3ccc4c(c3)CN(C3COC3)CC[C@H]4NC(=O)c3cn(C(C)(C)C)nn3)n2)cn1, “pathway activation z-score” read 1.26 (mouse splenic B cells; refers to: IL-1 signalling; 30 mg/kg, IgD-activated in vivo; relative to: vehicle, direction not given).
CCCc1cc(C)[nH]c(=O)c1CNC(=O)c1cc(-c2ccc(N3CCN(C(C)C)CC3)nc2)cc2c1cnn2C(C)C gave a viability of 113% (HBL-1; 0.1 µM, 120 h).
Cc1ccc(S(=O)(=O)/C=C/C#N)cc1 gave an inhibition of 94.6% (BT-12; cell viability, MTT; 10 µM, 72 h).
CC(=O)c1nn(-c2ccc(Cl)cc2)/c(=N/N=C(\C)c2ccc(NC(=O)c3ccc(C)cc3)cc2)s1 has a toxicity of 73.5% (MCF7; 0.625 µM).
With COc1cc2ncnc(N3CCN(C(=O)Nc4ccc(Oc5ccccc5)cc4)CC3)c2cc1OC the inhibition was 65% (HeLa expressing Ub(G76V)-GFP; Ub(G76V)-GFP degradation, inhibitor, cycloheximide chase; 12 µM).
N[C@@H](CCC(=O)O)C(=O)O — result for “lowest effective concentration”: 1 µM (hiPSC glutamatergic neurons; network burst frequency, multi-electrode array; 2 h).
The log ratio of CC/C(=N\NC(=O)NCc1cccc(O)c1)c1ccc(O)c(C)c1O is reported as -3.02 (SK-OV-3; gene expression, microarray, refers to: THBD; 10 µM, 24 h; relative to: DMSO).
O=C(CCCCCN1C(=O)c2cccc3cccc(c23)C1=O)NO has an inhibition of 81.2% (BT-12; cell viability, MTT; 10 µM, 72 h).
With Oc1ccc(/C=C/c2cc(O)cc(O)c2)cc1 the viability was 108% (HBL-1; 0.5 µM, 120 h).
For COc1cnc2cccc(N3CCc4c(cc(Cn5ccnc5C)cc4-c4cn(C)nc4C(F)(F)F)C3=O)c2c1, the EC50 was 30.9 µM (KYSE-70; cell growth, inhibitor; 120 h).
For Cc1cc(Nc2ncc(Cl)c(Nc3ccccc3S(=O)(=O)C(C)C)n2)c(OC(C)C)cc1C1CCNCC1, “log2 fold change” read -3.62 (CLB-BAR; phosphoproteomics LC-MS/MS, refers to: PDCD4 phosphorylation; 200 nM, 60 min; relative to: untreated).
COc1cc2c(NC3CCN(C)CC3)nc(N3CCCN(C)CC3)nc2cc1OCCOCCN(C)C has a viability of 125% (HBL-1; 0.5 µM, 120 h).
With COc1cc(/C=C/C(=O)N2CCC=CC2=O)cc(OC)c1OC the mRNA level was 106 ± 14.7% (MDA-MB-468; qRT-PCR, refers to: PRDX5; 30 µM, 6 h; relative to: time zero).
The viability of CCCC(=O)O is reported as 91.9% (HBL-1; 1 µM, 120 h).
With c1cc(-c2cnn3cc(-c4ccc(OCCN5CCCCC5)cc4)cnc23)ccn1 the inhibition was 3% (HeLa expressing Ub(G76V)-GFP; Ub(G76V)-GFP degradation, cycloheximide chase; 12 µM).

For quick reference, copied from above:
With COc1cc2ncnc(N3CCN(C(=O)Nc4ccc(Oc5ccccc5)cc4)CC3)c2cc1OC the inhibition was 65% (HeLa expressing Ub(G76V)-GFP; Ub(G76V)-GFP degradation, inhibitor, cycloheximide chase; 12 µM).
With O=C(/C=C/C=C/C=C/C1CCCCC1)NC1=C[C@@](O)(/C=C/C=C/C=C/C(=O)NC2=C(O)CCC2=O)[C@@H]2O[C@@H]2C1=O the GI50 was 16.7 µM (snuc2a; cell growth, inhibitor, CellTiter-Glo luminescence; 78 h; relative to: day 0 cell count).
For Cc1cc(Nc2ncc(Cl)c(Nc3ccccc3S(=O)(=O)C(C)C)n2)c(OC(C)C)cc1C1CCNCC1, “log2 fold change” read -3.62 (CLB-BAR; phosphoproteomics LC-MS/MS, refers to: PDCD4 phosphorylation; 200 nM, 60 min; relative to: untreated).
